Experimental data gathered from unrelated publications.
Lines come from different studies, so protocols differ.

`CN[C@@H]1[C@H](O)[C@H](NC)[C@H]2O[C@]3(O)[C@H](O[C@@H]2[C@H]1O)O[C@H](C)C[C@@]3(O)CNCc1ccc(OC(F)(F)F)cc1` has an MIC of 1.6 µg/mL (Streptococcus pyogenes; ATCC 700294).
The MIC of `CC[C@@H](C)[C@@H](NC(=O)[C@@H](C)NC(=O)[C@@H](CCCCN)NC(=O)[C@@H](CC(C)C)NC(=O)[C@@H](C)NC(=O)[C@H](NC(=O)[C@@H](Cc1c[nH]cn1)NC(=O)[C@@H](CC(C)C)NC(=O)[C@H](NC(=O)[C@H](NC(=O)[C@@H](CCCCN)NC(=O)[C@@H](CCCCN)NC(=O)[C@@H](C)NC(=O)[C@@H](CO)NC(=O)[C@@H](CCCCN)NC(=O)[C@@H](Cc1ccccc1)NC(=O)[C@H](NC(=O)[C@@H](CCCCN)NC(=O)[C@@H](CC(C)C)NC(=O)[C@@H](Cc1ccccc1)NC(=O)[C@@H](CO)NC(=O)[C@@H](CCCCN)NC(=O)[C@@H](Cc1c[nH]c2ccccc12)NC(=O)[C@@H](CCCCN)NC(C)=O)[C@H](C)O)[C@H](C)O)C(C)C)[C@H](C)O)C(=O)N[C@H](CO)C(=O)N[C@H](CO)C(N)=O` is reported as 1.5 µM (Acinetobacter baumannii; 964, Mueller-Hinton broth; 24 h, 37 °C).
`CCCCCCCCCCCC[S+]([O-])CC1OC(OC2C(N)CC(N)C(OC3OC(CN)C(O)CC3N)C2O)C(O)C(N)C1O` (mixture of isomers) gave an MIC of 18.8 µg/mL (Streptococcus pyogenes; M12 MGAS9429).
The MIC of `CC[C@H](C)[C@H](NC(=O)[C@@H]1CC(=O)N[C@@H](CO)C(=O)N[C@@H](CC(C)C)C(=O)NCC(=O)N[C@@H](CO)C(=O)N[C@@H](CO)C(=O)N2CCC[C@H]2C(=O)N[C@@H](Cc2ccc(O)cc2)C(=O)N[C@@H](CC(N)=O)C(=O)N1)C(=O)N[C@@H](CC(C)C)C(=O)NCC(=O)N[C@@H](Cc1ccc(O)cc1)C(=O)N1CCC[C@H]1C(=O)N[C@@H](C)C(=O)N[C@@H](CC(C)C)C(=O)N[C@H](C(=O)N[C@H](C(=O)N[C@H](C(=O)N[C@@H](Cc1ccc(O)cc1)C(=O)N1CCC[C@H]1C(=O)O)[C@@H](C)CC)C(C)C)[C@@H](C)CC` is reported as over 128 µg/mL (Trichoderma longibrachiatum).
For `[O-][N+]1=C(c2ccccc2)C2=NCCN2c2ccccc21`, the MIC was at most 0.06 µg/mL (Porphyromonas sp.).
With `CO[C@H]1/C=C/O[C@@]2(C)Oc3c(C)c(O)c4c(c3C2=O)C2=NC3(CCN(CC(C)C)CC3)NC2=C(NC(=O)/C(C)=C\C=C\[C@H](C)[C@H](O)[C@@H](C)[C@@H](O)[C@@H](C)[C@H](OC(=O)c2cccc(C)c2)[C@@H]1C)C4=O` the MIC was 0.065 µM (Mycobacteroides abscessus; ATCC 19977 arr deletion; 90% growth inhibition).
`CN1C(=O)[C@@H]2NC(=O)[C@@H]3NC(=O)[C@@H](c4ccc(O)cc4)NC(=O)[C@H](NC(=O)C(NCc4ccc(O)c(O)c4O)c4ccc(O)cc4)Cc4c[nH]c5cc(ccc45)-c4cc3cc(c4O)Oc3ccc(cc3)C[C@H]1C(=O)N[C@@H](C(=O)O)c1ccc(O)c(c1)Oc1ccc2cc1` (some centres unmarked) has an MIC of 16 µg/mL (Enterococcus faecium; brain heart infusion medium).
`CC[C@H](C)[C@H](NC(=O)[C@@H](NC(=O)CN)C(C)C)C(=O)N[C@@H](Cc1ccccc1)C(=O)N[C@@H](CC(N)=O)C(=O)N[C@@H](C)C(=O)N[C@@H](CC(C)C)C(=O)N[C@@H](CCCCN)C(=O)NCC(=O)N[C@H](C(=O)N[C@@H](C)C(=O)N[C@@H](CCCCN)C(=O)N[C@H](C(=O)N[C@H](C(=O)N[C@@H](C)C(=O)N[C@@H](C)C(=O)N[C@@H](CCC(N)=O)C(=O)N[C@@H](CC(C)C)C(=O)N[C@@H](CC(C)C)C(=O)N[C@@H](CCCCN)C(=O)N[C@@H](CCCCN)C(=O)N[C@@H](C)C(=O)N[C@@H](CCCNC(=N)N)C(=O)N[C@H]1CSSC[C@@H](C(=O)O)NC(=O)[C@H](CO)NC(=O)[C@H](CCCCN)NC(=O)[C@H](CC(=O)O)NC(=O)[C@H](CC(C)C)NC(=O)[C@H](CCCCN)NC1=O)C(C)C)[C@@H](C)O)C(C)C` has an MIC of 2 µM (Staphylococcus aureus; NCTC 10788, Mueller-Hinton broth; with: NaCl 150 mM).
The MIC of `C[N+]1=C2C(c3ccccc3)=[N+]([O-])c3ccccc3N2CCC1` is reported as 4 µg/mL (Porphyromonas sp.).
With `CN[C@@H]1[C@H](O)[C@H](NC)[C@H]2O[C@]3(O)[C@H](O[C@@H]2[C@H]1O)O[C@H](C)C[C@@]3(O)CNCc1ccc(F)cc1` the MIC was 16 µg/mL (Mycobacteroides abscessus; ATCC 19977 whiB7 MAB_2355 deleted; 120 h).
`CN1C(=O)[C@@H]2NC(=O)[C@@H]3NC(=O)[C@@H](c4ccc(O)cc4)NC(=O)[C@H](NC(=O)C(NCc4cc(F)cc(F)c4F)c4ccc(O)cc4)Cc4c[nH]c5cc(ccc45)-c4cc3cc(c4O)Oc3ccc(cc3)C[C@H]1C(=O)N[C@@H](C(=O)O)c1ccc(O)c(c1)Oc1ccc2cc1` (some centres unmarked) has an MIC of 4 µg/mL (Enterococcus faecium; brain heart infusion medium).
